Results gathered from unrelated publications.
Compare with care: the assays were run in different laboratories. Several values in a cell are separate wells, animals, samples, runs or records. ± marks the error that the study gave. ≈ marks a conversion by molar mass, not a printed value.

`CC[C@H](C)[C@H](NC(=O)[C@H](CCCCN)NC(=O)[C@H](CCCCN)NC(=O)[C@H](CC(C)C)NC(=O)[C@H](CCCCN)NC(=O)[C@H](CCC(=O)O)NC(=O)[C@H](CCCCN)NC(=O)[C@@H](NC(=O)[C@H](CCCCN)NC(=O)[C@H](CC(N)=O)NC(=O)[C@H](CCCNC(=N)N)NC(=O)[C@H](Cc1ccccc1)NC(=O)[C@H](CCCCN)NC(=O)[C@H](CCCNC(=N)N)NC(=O)[C@H](CC(C)C)NC(=O)[C@H](CCCNC(=N)N)NC(=O)[C@H](CCCCN)NC(=O)[C@H](CCCNC(=N)N)NC(=O)[C@@H](N)CC(C)C)[C@@H](C)CC)C(=O)NCC(=O)N[C@@H](CCC(N)=O)C(=O)N[C@@H](CCCCN)C(=O)N[C@H](C(=O)N[C@@H](CCC(N)=O)C(=O)NCC(=O)N[C@@H](Cc1ccccc1)C(=O)N[C@H](C(=O)N1CCC[C@H]1C(=O)N[C@@H](CCCCN)C(=O)N[C@@H](CC(C)C)C(=O)O)C(C)C)[C@@H](C)CC` gave a lethal concentration of 1.75 µM (Streptococcus sanguinis; inhibition zone; ATCC 1.2497; LB agar, overnight).
`CC(=O)O[C@@H]1C[C@@H](C)O[C@H]2O[C@@H]3C[C@@H]4CC[C@@H]5[C@H](CC[C@]6(C)[C@@H](C7=CC(=O)OC7)CC[C@]56O)[C@@]4(C)C[C@H]3O[C@]21O` — result for “worm burden reduction”: 38% and 38.1% (Schistosoma mansoni; mouse, chronic infection; oral, 10 mg/kg single dose).
For `CC1(C)CC[C@]23CC[C@]4(C)[C@H](CC[C@@H]5[C@@]6(C)CCCNC(C)(C)[C@@H]6CC[C@]54C)[C@H]2[C@H]1OC3`, the selectivity index was less than 3 (Human cytomegalovirus; HFF, AD169; relative to: CC50 over EC50).
The median survival of `Cc1nc2c(cnn2C(C)C)cc1C(=O)NCc1ccc(C(C)O)c(C)n1` (stereo not drawn) is reported as 37 days (Drosophila melanogaster; APP transgenic (Alzheimer model); in food, 100 µM, 72 h, from adult day 3).
`CC[C@H](C)[C@H](NC(=O)[C@@H]1CC(=O)N[C@@H](CO)C(=O)N[C@@H](CC(C)C)C(=O)NCC(=O)N[C@@H](CO)C(=O)N[C@@H](CO)C(=O)N2CCC[C@H]2C(=O)N[C@@H](Cc2ccc(O)cc2)C(=O)N[C@@H](CC(N)=O)C(=O)N1)C(=O)N[C@@H](CC(C)C)C(=O)NCC(=O)N[C@@H](Cc1ccc(O)cc1)C(=O)N1CCC[C@H]1C(=O)N[C@@H](C)C(=O)N[C@@H](CC(C)C)C(=O)N[C@H](C(=O)N[C@H](C(=O)N[C@H](C(=O)N[C@@H](Cc1ccc(O)cc1)C(=O)N1CCC[C@H]1C(=O)O)[C@@H](C)CC)C(C)C)[C@@H](C)CC` — result for antibacterial activity: “active” (Gram-positive bacteria; concentration not given).
`COc1ccc(-n2c(SCC#N)nnc2[C@H](Cc2ccccc2)NC(=O)Cc2c(C)[nH]c3ccccc23)cc1` gave an infection of 6.82 ± 4.73% (HIV-1 NL4-3; single-round infection; 5 µM, late stage; relative to: untreated).
For `C/C=C/c1ccc(OC(C)=O)c(OC)c1`, the antifeedant index was 42.7% (Spodoptera frugiperda; larvae; 100 µg/mL; relative to: untreated control).
For `CC(C)C[C@@H]1NC(=O)[C@H](CCCCN)NC(=O)[C@H](C(C)C)NC(=O)[C@@H]2CCCN2C(=O)[C@@H](Cc2ccc(O)cc2)NC(=O)[C@H](CC(C)C)NC(=O)[C@H](CCCCN)NC(=O)[C@H](C(C)C)NC(=O)[C@H](CCCCN)NC(=O)[C@@H]2CCCN2C(=O)[C@@H](Cc2ccc(O)cc2)NC1=O`, “MIC geometric mean” read 70.7 µg/mL (≈ 53.2 µM) (Gram-negative bacteria; 24 h, 7 strains).
For `CC[C@H](C)[C@H](NC(=O)[C@H](CCCCN)NC(=O)[C@H](CCCCN)NC(=O)[C@H](CC(C)C)NC(=O)[C@H](CCCCN)NC(=O)[C@H](CCC(=O)O)NC(=O)[C@H](CCCCN)NC(=O)[C@@H](NC(=O)[C@H](CCCCN)NC(=O)[C@H](CC(N)=O)NC(=O)[C@H](CCCNC(=N)N)NC(=O)[C@H](Cc1ccccc1)NC(=O)[C@H](CCCCN)NC(=O)[C@H](CCCNC(=N)N)NC(=O)[C@H](CC(C)C)NC(=O)[C@H](CCCNC(=N)N)NC(=O)[C@H](CCCCN)NC(=O)[C@H](CCCNC(=N)N)NC(=O)[C@H](CC(C)C)NC(=O)[C@@H](N)CCCNC(=N)N)[C@@H](C)CC)C(=O)NCC(=O)N[C@@H](CCC(N)=O)C(=O)N[C@@H](CCCCN)C(=O)N[C@H](C(=O)N[C@@H](CCC(N)=O)C(=O)NCC(=O)N[C@@H](Cc1ccccc1)C(=O)N[C@H](C(=O)N1CCC[C@H]1C(=O)N[C@@H](CCCCN)C(=O)N[C@@H](CC(C)C)C(=O)N[C@@H](CCC(N)=O)C(=O)N1CCC[C@H]1C(=O)N[C@@H](CO)C(=O)N[C@@H](CCCCN)C(=O)N[C@@H](CCC(N)=O)C(=O)N[C@@H](CO)C(=O)O)C(C)C)[C@@H](C)CC`, the lethal concentration was 4.13 µM (Streptococcus salivarius; inhibition zone; ATCC 1.2498; LB agar, overnight).
`C=CCc1ccc(OCc2ccccc2)c(OC)c1` has an LD50 of 900 mg/kg (Spodoptera frugiperda; insecticidal activity; larvae; topical).
`CC[C@@H](N[C@@H](C)CC(N)=O)c1ccc(Cl)c(Oc2ccccc2)c1F` — result for “EC50 fold change”: 30 fold (Hepatitis C virus; viral replication, luciferase; Huh-7, V630L mutant replicon; relative to: wild type replicon).
`CCCCCCCCCCCCCC(=O)N[C@H](CCN)C(=O)N[C@@H]1C(=O)N[C@@H](CCN)C(=O)N[C@@H](CC(C)C)C(=O)N[C@@H](CCN)C(=O)N[C@H](Cc2ccccc2)C(=O)N[C@@H](CC(C)C)C(=O)N[C@@H](CCN)C(=O)N[C@H](Cc2ccc(O)cc2)C(=O)N[C@@H](C(C)C)C(=O)N[C@@H](CC(=O)O)C(=O)O[C@@H]1C` — result for “MIC fold change with serum”: 4 fold (ESKAPE pathogens; concentration not given; relative to: MIC with serum over without).
With `CC(=O)c1c(O)c(C)c(O)c2c1OC1=CC(=O)/C3=C(/C)N[C@H](C(=O)O)CC1=CC=C(O)C=C[C@]2(C)C3=O` the MIC99 was 11.8 µM (≈ 5.99 µg/mL) (Candida tropicalis; broth microdilution; ATCC 750 fluconazole and amphotericin B resistant; 24 and 48 h).
For `C=CCc1ccc(OCC=C(C)C)c(OC)c1`, the antifeedant index was 37.2% (Spodoptera frugiperda; larvae; 100 µg/mL; relative to: untreated control).
`CS(=O)(=O)c1ccc(/C=N/NC(=O)Cn2ccc(=O)c3ccccc32)cc1` has an inhibition of 14.3% (Rhizoctonia solani; microbial growth; 50 µg/mL).
`CC[C@H](C)[C@H](NC(=O)[C@H](CO)NC(=O)[C@H](CO)NC(=O)[C@H](Cc1ccccc1)NC(=O)CN)C(=O)N[C@@H](Cc1ccccc1)C(=O)N[C@@H](CCCNC(=N)N)C(=O)NCC(=O)N[C@H](C(=O)N[C@@H](C)C(=O)N[C@@H](CCCCN)C(N)=O)C(C)C` gave an MBC of greater than 128 µM (Escherichia coli; ATCC 8739; 20% FBS).
`CC[C@H](C)[C@H](NC(=O)CNC(=O)[C@H](CCCCN)NC(=O)[C@H](CC(C)C)NC(=O)[C@H](CC(C)C)NC(=O)[C@H](CCCCN)NC(=O)[C@H](CCC(=O)O)NC(=O)[C@@H](NC(=O)[C@@H](NC(=O)CN)[C@@H](C)CC)[C@@H](C)CC)C(=O)NCC(=O)N[C@@H](CCCCN)C(=O)N[C@H](C(=O)N[C@H](C(=O)N[C@@H](CO)C(=O)NCC(=O)N[C@H](C(=O)N[C@@H](CC(C)C)C(=O)N[C@@H](CCCCN)C(=O)N[C@@H](C)C(=O)N[C@H](C(=O)N[C@@H](C)C(=O)NCC(=O)N[C@@H](C)C(=O)N[C@@H](CCC(N)=O)C(=O)N[C@@H](CO)C(=O)NCC(=O)NCC(=O)N[C@@H](CO)C(=O)N[C@@H](CCC(N)=O)C(=O)N[C@H](C(=O)N[C@@H](CCCCN)C(=O)N[C@@H](C)C(=O)N[C@@H](CO)C(=O)N[C@@H](CCC(N)=O)C(=O)N[C@@H](CCCCN)C(=O)N[C@H](C(=O)N[C@@H](C)C(=O)N[C@@H](CO)C(=O)O)[C@@H](C)CC)[C@@H](C)CC)[C@@H](C)O)C(C)C)C(C)C)C(C)C` — result for antibacterial activity: “active” (Gram-negative bacteria; MIC; concentration not given).
For `CC(C)C[C@@H]1NC(=O)[C@H](CCCCN)NC(=O)[C@H](C(C)C)NC(=O)[C@@H]2CCCN2C(=O)[C@@H](Cc2ccc(O)cc2)NC(=O)[C@H](CC(C)C)NC(=O)[C@H](CCCCN)NC(=O)[C@H](C(C)C)NC(=O)[C@H](CCCCN)NC(=O)[C@@H]2CCCN2C(=O)[C@@H](Cc2ccc(O)cc2)NC(=O)[C@H](CCCCN)NC1=O`, “MIC geometric mean” read 105 µg/mL (≈ 72 µM) (Gram-negative bacteria; 24 h, 7 strains).

Excerpt of the above:
`CCCCCCCCCCCCCC(=O)N[C@H](CCN)C(=O)N[C@@H]1C(=O)N[C@@H](CCN)C(=O)N[C@@H](CC(C)C)C(=O)N[C@@H](CCN)C(=O)N[C@H](Cc2ccccc2)C(=O)N[C@@H](CC(C)C)C(=O)N[C@@H](CCN)C(=O)N[C@H](Cc2ccc(O)cc2)C(=O)N[C@@H](C(C)C)C(=O)N[C@@H](CC(=O)O)C(=O)O[C@@H]1C` — result for “MIC fold change with serum”: 4 fold (ESKAPE pathogens; concentration not given; relative to: MIC with serum over without).
With `CC(=O)c1c(O)c(C)c(O)c2c1OC1=CC(=O)/C3=C(/C)N[C@H](C(=O)O)CC1=CC=C(O)C=C[C@]2(C)C3=O` the MIC99 was 11.8 µM (≈ 5.99 µg/mL) (Candida tropicalis; broth microdilution; ATCC 750 fluconazole and amphotericin B resistant; 24 and 48 h).
